Measurements of several laboratories.
Numbered parts are unrelated; each lists some results of a single study.
Sequence of UniProt P10721 (whole entry, unmodified, looked up): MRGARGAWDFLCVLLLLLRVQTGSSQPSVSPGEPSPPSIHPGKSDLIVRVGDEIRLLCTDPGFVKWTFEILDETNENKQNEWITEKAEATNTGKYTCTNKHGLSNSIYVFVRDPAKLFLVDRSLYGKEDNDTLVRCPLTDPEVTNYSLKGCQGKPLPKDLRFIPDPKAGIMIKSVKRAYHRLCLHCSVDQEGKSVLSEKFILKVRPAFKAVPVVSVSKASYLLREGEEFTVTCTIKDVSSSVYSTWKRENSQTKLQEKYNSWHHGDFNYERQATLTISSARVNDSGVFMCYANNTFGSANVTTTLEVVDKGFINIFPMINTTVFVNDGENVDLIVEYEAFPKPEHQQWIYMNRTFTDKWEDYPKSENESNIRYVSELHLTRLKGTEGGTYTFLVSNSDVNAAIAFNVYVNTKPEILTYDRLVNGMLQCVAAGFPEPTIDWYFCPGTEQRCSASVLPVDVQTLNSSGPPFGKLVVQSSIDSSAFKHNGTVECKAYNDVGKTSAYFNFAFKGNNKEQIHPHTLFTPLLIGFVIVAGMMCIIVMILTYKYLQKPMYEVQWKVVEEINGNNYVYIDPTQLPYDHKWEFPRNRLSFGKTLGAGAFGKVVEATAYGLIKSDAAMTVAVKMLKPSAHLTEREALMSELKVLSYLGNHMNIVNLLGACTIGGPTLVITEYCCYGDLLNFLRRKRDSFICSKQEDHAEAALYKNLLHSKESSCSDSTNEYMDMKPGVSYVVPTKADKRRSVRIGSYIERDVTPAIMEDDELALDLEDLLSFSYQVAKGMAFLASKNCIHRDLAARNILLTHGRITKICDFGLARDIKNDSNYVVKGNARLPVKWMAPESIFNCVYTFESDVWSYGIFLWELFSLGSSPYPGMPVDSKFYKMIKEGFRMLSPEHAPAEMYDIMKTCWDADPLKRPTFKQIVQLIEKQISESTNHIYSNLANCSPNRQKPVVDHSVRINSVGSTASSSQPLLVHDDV
Sequence of UniProt Q13464 (whole entry, looked up): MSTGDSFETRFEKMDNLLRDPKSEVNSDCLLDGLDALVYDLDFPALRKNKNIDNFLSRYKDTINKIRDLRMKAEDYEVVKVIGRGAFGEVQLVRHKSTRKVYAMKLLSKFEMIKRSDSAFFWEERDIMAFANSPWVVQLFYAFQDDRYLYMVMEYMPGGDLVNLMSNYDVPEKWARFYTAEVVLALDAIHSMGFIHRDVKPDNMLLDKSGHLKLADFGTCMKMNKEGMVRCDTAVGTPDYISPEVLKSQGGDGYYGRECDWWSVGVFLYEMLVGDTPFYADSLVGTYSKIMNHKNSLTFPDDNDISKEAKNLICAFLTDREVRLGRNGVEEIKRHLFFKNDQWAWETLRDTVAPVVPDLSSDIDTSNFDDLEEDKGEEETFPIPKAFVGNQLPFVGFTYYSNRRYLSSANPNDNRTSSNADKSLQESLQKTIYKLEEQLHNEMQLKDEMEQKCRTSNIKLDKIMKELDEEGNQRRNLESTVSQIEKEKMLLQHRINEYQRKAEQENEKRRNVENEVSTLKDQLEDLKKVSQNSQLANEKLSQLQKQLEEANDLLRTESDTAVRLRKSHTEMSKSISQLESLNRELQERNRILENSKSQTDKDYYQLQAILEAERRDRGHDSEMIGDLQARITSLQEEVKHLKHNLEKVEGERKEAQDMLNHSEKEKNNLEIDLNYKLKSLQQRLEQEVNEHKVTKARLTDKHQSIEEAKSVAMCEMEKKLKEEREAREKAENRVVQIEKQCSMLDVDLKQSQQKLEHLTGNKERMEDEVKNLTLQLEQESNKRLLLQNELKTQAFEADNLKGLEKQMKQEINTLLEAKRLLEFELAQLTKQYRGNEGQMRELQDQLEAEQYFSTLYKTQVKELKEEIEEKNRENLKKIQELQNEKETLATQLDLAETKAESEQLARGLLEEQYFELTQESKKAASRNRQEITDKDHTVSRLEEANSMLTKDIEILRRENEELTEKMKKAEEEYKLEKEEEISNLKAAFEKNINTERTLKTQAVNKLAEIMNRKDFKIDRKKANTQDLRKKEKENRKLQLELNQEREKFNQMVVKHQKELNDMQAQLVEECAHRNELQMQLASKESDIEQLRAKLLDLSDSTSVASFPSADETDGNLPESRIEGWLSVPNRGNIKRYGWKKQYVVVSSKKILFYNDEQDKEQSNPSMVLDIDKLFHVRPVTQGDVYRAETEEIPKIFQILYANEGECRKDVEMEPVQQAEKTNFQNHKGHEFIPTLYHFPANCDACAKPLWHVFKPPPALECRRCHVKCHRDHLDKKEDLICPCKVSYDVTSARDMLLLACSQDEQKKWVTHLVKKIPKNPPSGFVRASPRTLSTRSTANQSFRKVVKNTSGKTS
Sequence of UniProt Q9C098 (whole entry, looked up): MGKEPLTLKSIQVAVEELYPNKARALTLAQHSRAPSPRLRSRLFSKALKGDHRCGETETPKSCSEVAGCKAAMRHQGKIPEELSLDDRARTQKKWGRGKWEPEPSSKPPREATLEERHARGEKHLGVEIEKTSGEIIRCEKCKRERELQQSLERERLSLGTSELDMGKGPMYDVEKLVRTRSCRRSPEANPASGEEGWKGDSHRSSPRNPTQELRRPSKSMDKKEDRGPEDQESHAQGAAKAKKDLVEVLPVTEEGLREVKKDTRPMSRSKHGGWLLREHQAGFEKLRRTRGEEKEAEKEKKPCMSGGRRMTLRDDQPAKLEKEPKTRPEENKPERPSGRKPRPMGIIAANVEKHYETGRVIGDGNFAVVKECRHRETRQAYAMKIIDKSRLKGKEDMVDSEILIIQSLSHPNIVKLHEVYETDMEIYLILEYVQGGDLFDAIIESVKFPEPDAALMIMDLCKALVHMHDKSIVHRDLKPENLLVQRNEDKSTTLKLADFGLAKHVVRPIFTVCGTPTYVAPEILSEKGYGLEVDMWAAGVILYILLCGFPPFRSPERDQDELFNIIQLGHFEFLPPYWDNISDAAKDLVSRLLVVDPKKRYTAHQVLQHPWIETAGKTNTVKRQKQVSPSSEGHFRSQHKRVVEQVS
Sequence of UniProt Q13470 (whole entry, looked up): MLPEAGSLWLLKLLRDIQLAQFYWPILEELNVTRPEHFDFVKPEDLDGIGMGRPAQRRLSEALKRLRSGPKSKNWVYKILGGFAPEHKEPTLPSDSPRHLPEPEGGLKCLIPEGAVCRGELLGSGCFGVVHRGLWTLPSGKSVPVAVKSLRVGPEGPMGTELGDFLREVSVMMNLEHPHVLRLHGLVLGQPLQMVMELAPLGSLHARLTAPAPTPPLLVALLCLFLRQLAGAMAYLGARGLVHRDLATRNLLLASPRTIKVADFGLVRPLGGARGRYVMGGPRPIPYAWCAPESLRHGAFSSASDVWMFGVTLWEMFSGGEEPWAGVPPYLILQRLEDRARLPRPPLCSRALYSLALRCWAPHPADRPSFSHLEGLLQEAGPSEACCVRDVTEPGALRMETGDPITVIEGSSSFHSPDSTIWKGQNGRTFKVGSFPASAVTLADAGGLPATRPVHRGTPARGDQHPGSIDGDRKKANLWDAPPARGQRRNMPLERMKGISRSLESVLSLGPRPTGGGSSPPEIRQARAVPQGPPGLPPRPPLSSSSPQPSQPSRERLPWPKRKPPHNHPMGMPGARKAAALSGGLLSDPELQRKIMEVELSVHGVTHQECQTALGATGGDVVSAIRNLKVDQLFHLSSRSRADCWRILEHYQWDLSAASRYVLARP
Sequence of UniProt Q9H4B4 (whole entry, looked up): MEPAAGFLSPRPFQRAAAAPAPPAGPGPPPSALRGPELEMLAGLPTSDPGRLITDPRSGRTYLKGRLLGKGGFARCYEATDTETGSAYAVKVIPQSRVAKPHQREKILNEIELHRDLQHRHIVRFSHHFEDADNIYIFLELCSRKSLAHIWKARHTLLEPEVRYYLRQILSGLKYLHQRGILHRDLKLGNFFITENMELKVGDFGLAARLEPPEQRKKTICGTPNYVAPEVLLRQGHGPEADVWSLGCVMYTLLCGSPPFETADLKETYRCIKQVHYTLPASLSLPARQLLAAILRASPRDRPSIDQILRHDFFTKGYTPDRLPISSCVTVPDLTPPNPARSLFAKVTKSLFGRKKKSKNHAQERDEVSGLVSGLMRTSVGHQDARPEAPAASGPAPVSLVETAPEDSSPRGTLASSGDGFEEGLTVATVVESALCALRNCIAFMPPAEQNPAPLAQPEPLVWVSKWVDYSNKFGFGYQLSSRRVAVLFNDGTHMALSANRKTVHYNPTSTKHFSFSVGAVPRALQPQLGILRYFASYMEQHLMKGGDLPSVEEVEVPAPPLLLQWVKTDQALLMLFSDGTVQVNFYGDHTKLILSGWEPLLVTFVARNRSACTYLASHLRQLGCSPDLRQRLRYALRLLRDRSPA
Sequence of UniProt Q9H3Y6 (whole entry, looked up): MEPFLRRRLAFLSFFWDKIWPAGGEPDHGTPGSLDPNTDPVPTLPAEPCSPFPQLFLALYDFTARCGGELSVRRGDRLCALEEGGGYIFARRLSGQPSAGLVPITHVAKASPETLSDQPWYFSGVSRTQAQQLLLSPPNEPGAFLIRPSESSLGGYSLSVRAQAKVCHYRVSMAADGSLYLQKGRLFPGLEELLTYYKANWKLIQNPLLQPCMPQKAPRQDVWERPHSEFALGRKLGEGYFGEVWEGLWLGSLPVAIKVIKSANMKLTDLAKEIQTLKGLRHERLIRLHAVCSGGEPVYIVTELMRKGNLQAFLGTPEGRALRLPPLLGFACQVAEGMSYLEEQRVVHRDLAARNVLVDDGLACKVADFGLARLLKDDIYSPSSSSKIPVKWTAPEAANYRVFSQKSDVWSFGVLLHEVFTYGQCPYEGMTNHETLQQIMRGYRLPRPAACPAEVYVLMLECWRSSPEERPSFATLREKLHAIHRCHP

Block 1 — method: Spec-seq; molecule type: double-stranded DNA, one strand shown; medium: in vitro; tested at: not given; notes: whole probe, mean of replicates; relative to: not given; direction: lower = stronger binding; all sequences stand within: GAGTCGTCTCGTCAGCAC … CCGTAGAGCACTCAGGTC
Target: POU domain, class 5, transcription factor 1, POU domain (Pou5f1, Mus musculus, UniProt P20263, residues 131-289)
Sequence of UniProt P20263 (131-289, looked up): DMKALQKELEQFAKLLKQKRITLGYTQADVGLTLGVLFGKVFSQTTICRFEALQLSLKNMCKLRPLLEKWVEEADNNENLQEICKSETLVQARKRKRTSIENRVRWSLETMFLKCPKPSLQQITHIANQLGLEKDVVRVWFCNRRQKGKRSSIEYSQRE
Strand	relative binding energy [ln ratio]
ATAAGTAT	0.203
AATCTAAT	0.247
CATCTAAT	0.663
ATGCTTAG	0.447
TAACTAAT	0.107
ACGTTAAT	0.0233
ATTGATAT	-0.00501
ATGCGCAG	0.384

Block 2 — read-out: enzyme activity; mode: inhibitor; tested at: 0.5 µM; relative to: control
SMILES: CC[n+]1c(/C=C/N(C)c2ccccc2)n(-c2ccccc2)c2ccc(-c3nc4ccccc4s3)cc21
target	remaining activity [%]
Cyclin-dependent kinase 9, with cyclin K (CDK9, Homo sapiens, UniProt P50750)	106
Serine/threonine-protein kinase PLK3 (PLK3, Homo sapiens, UniProt Q9H4B4)	104
Dual specificity protein kinase CLK4 (CLK4, Homo sapiens, UniProt Q9HAZ1)	95.5
Rho-associated protein kinase 1 (ROCK1, Homo sapiens, UniProt Q13464)	98.1
Calcium/calmodulin-dependent protein kinase type 1B (PNCK, Homo sapiens, UniProt Q6P2M8)	114
Serine/threonine-protein kinase MRCK beta (CDC42BPB, Homo sapiens, UniProt Q9Y5S2)	95
Serine/threonine-protein kinase Nek3 (NEK3, Homo sapiens, UniProt P51956)	102
Mitogen-activated protein kinase 11 (MAPK11, Homo sapiens, UniProt Q15759)	101
Calcium/calmodulin-dependent protein kinase type IV (CAMK4, Homo sapiens, UniProt Q16566)	93.2

Block 3 — read-out: cell-free assay; method: competition with immobilised ligand; tested at: 1 µM
Structure (SMILES): O=C1CCc2cc(Nc3cc(OC4CCOCC4)c([N+](=O)[O-])cc3Cl)ccc2N1
target	remaining binding [%]
Ribosomal protein S6 kinase alpha-2, C-terminal kinase domain (RPS6KA2, Homo sapiens, UniProt Q15349)	92
RAF proto-oncogene serine/threonine-protein kinase (RAF1, Homo sapiens, UniProt P04049)	98
Mast/stem cell growth factor receptor Kit (KIT, Homo sapiens, UniProt P10721, V559D/V654A)	92
Tyrosine-protein kinase Srms (SRMS, Homo sapiens, UniProt Q9H3Y6)	82
Epidermal growth factor receptor (EGFR, Homo sapiens, UniProt P00533, G719S)	100
Phosphatidylinositol 4,5-bisphosphate 3-kinase catalytic subunit alpha isoform (PIK3CA, Homo sapiens, UniProt P42336, H1047Y)	100
Dual specificity protein kinase CLK1 (CLK1, Homo sapiens, UniProt P49759)	84
Serine/threonine-protein kinase Nek10 (NEK10, Homo sapiens, UniProt Q6ZWH5)	100
Homeodomain-interacting protein kinase 2 (HIPK2, Homo sapiens, UniProt Q9H2X6)	100
Non-receptor tyrosine-protein kinase TNK1 (TNK1, Homo sapiens, UniProt Q13470)	87
Dual specificity mitogen-activated protein kinase kinase 2 (MAP2K2, Homo sapiens, UniProt P36507)	73
Mast/stem cell growth factor receptor Kit (KIT, Homo sapiens, UniProt P10721)	95
Tyrosine-protein kinase ABL1, phosphorylated (ABL1, Homo sapiens, UniProt P00519, M351T)	100
Rho-associated protein kinase 1 (ROCK1, Homo sapiens, UniProt Q13464)	80
Phosphatidylinositol 4-phosphate 3-kinase C2 domain-containing subunit beta (PIK3C2B, Homo sapiens, UniProt O00750)	89
Tyrosine-protein kinase ABL1, non-phosphorylated (ABL1, Homo sapiens, UniProt P00519, H396P)	89
Cyclin-dependent kinase-like 5 (CDKL5, Homo sapiens, UniProt O76039)	99
Serine/threonine-protein kinase DCLK3 (DCLK3, Homo sapiens, UniProt Q9C098)	91
Mast/stem cell growth factor receptor Kit (KIT, Homo sapiens, UniProt P10721, T670I/V559D)	94
Mitogen-activated protein kinase kinase kinase kinase 5 (MAP4K5, Homo sapiens, UniProt Q9Y4K4)	87
Epidermal growth factor receptor (EGFR, Homo sapiens, UniProt P00533, del752-759)	100

Block 4 — method: protein binding microarray; molecule type: double-stranded DNA, one strand shown; medium: in vitro; tested at: not given; relative to: not given; direction: higher = stronger binding
Target: Histone acetyltransferase KAT6A, winged helix 2, GST fusion (KAT6A, Homo sapiens, UniProt Q92794, residues 85-181)
Notes: 8-mer, flanks averaged, mean of 2 arrays, mostly near background
Residues (chain): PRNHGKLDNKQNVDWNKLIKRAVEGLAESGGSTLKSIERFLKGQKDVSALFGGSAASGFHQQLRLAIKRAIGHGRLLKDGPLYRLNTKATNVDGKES
Strand	E-score
AGCTGGAA	-0.0869
GACATGCC	-0.0416
CCGAAGCG	0.0834
AAAAATAA	0.0852
ACGTTGGC	-0.179
CACAGCTC	0.0536
GTGACAGA	0.0541
GAATCTCC	0.077
